Published values gathered from unrelated publications.
Cell line: ACHN

SMILES	assay	setting	how to read	endpoint	value
CNS(=O)(=O)Nc1nccc(Cc2c(C)c3ccc(Oc4ncccc4F)cc3oc2=O)c1F	cell viability	7 days	–	IC50	> 1000 nM
O=C(Nc1nnc2c1c(-c1ccc(Cl)cc1)nc1sc(=Cc3ccco3)c(=O)n12)c1ccccc1 (mixture of isomers)	SRB	10 µM, NCI60 single-dose screen	baseline: untreated	cell growth	40.5%
Cc1ccc([N+](=O)[O-])cc1S(=O)(=O)N(C)/N=C/c1cnc2ccc(Br)cn12	MTS	NCI60 panel	–	IC50	92 nM
CCCC(CCC)C(=O)OCc1cn(-c2cc3ccccc3oc2=O)nn1	NCI60 single-dose screen	10 µM	–	growth percentage	96.1%
Cn1ncc(-c2ccc3c(=O)[nH]nc(CN)c3c2)c1-c1c(F)c(Cl)cc(OC2CC2)c1C#N	cell viability, inhibitor, CellTiter-Glo	120 h, baseline-subtracted	–	IC50	370 nM
CCN(C(=O)c1cc(F)ccc1Oc1nncnc1N1CCC2(C1)CN([C@H](CCCN(C)CCOC)C(C)C)C2)C(C)C	cell growth or viability	7 days	–	GI50	> 10000 nM
CN(C)CCN1CCN(c2ccc3nc(-c4ccc5nc(-c6ccc(C(F)(F)F)cc6)[nH]c5c4)[nH]c3c2)CC1	SRB	10 µM, 48 h	–	growth percent	79.3%
CC(C)c1ccc(N(C)c2ccc3c(c2)OCC[C@H]3CNc2cnccc2C(=O)O)cc1	cell growth or viability, ATP luminescence	7 days	–	IC50	34.7 nM
C1=[N+]2CCCC[N+]3=Cc4ccc5[n]4[Au-]23[n]2c1ccc2-c1nc2ccccc2nc1-5.F[P-](F)(F)(F)(F)F	NCI60 five-dose screen	–	–	TGI	4 -log M

Some of these lines once more:
SMILES	assay	setting	how to read	endpoint	value
Cc1ccc([N+](=O)[O-])cc1S(=O)(=O)N(C)/N=C/c1cnc2ccc(Br)cn12	MTS	NCI60 panel	–	IC50	92 nM
